Measured values gathered from unrelated publications.
Numbered parts are unrelated; each lists some results of a single study. Substitutions count along the parent as printed.

Study 1
Target: Sox-I, HMG box (Salpingoeca helianthica)
Technique: Spec-seq
Molecule type: double-stranded DNA, one strand shown
Sample: in vitro
Concentration: not given
Setting: whole probe, mean of replicates
Reference: not given
Direction: lower = stronger binding
Constant ends, left off below: GAGTCGTCTCGTCAGCAC … CCGTAGAGCACTCAGGTC
Construct (chain): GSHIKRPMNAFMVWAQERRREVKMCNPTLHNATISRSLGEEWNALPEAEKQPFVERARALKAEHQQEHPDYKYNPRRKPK
| Strand | relative binding energy |
| --- | --- |
| CATTGAA | 0.372 ln ratio |
| TCTAGTT | 0.056 ln ratio |
| CATTTGA | 1.02 ln ratio |
| GCCCGTT | 0.265 ln ratio |
| GCCTGTT | -0.42 ln ratio |
| TGAGGTT | 0.576 ln ratio |
| CATACAG | -0.024 ln ratio |
| CGTGGTT | 1.03 ln ratio |
| CATTAGC | 0.874 ln ratio |
| CATGATC | 0.578 ln ratio |
| CATAATG | -0.764 ln ratio |
| CATAGCT | 0.375 ln ratio |
| CATGGAA | 1 ln ratio |
| CATTGGT | 0.983 ln ratio |
| CATGTTT | 1.03 ln ratio |
| CATCAAG | 0.581 ln ratio |
| ATATGTT | -0.379 ln ratio |
| CATCTGT | 0.346 ln ratio |
| CATCAGA | 0.834 ln ratio |

Study 2
Target: Histone acetyltransferase KAT6A, winged helix 2, GST fusion (KAT6A, Homo sapiens, UniProt Q92794, residues 85-181)
Technique: protein binding microarray
Molecule type: double-stranded DNA, one strand shown
Sample: in vitro
Concentration: not given
Setting: 8-mer, flanks averaged, mean of 2 arrays, mostly near background
Reference: not given
Direction: higher = stronger binding
Construct (chain): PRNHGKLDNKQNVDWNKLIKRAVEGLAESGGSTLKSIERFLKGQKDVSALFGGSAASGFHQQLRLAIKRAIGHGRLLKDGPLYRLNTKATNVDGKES
| Strand | E-score |
| --- | --- |
| GAACTAGC | -0.0728 |
| TACACACA | 0.012 |
| CCGACCTA | 0.0613 |
| CGAGGGAG | 0.0934 |
| CCTAGACA | -0.089 |
| CCGTATGA | 0.0639 |
| GCAGCCAA | 0.0683 |
| GCTGAAAC | 0.163 |
| CCGTAAGC | -0.0533 |
| GGTCTATA | -0.227 |
| CATAGTCC | -0.0603 |
| CGATTGCC | 0.06 |
| CTAAAGAC | 0.0524 |
| ACGTAGTG | -0.0487 |
| ACTTGAGA | -0.115 |
| AACAAATC | 0.0473 |
| AGGCCCTC | -0.114 |
| GGCGGCGA | 0.178 |
| TCGTGCCA | -0.0466 |
| AAGCTGTC | -0.205 |
| CGGCCTTC | 0.172 |

Study 3
Target: Interferon regulatory factor 5, full length, phosphomimetic (IRF5, Homo sapiens, UniProt Q13568-2, residues 1-514, S451D/S453D/S456D/S462D)
Technique: protein-binding microarray
Molecule type: double-stranded DNA, one strand shown
Sample: in vitro
Concentration: 940 nM top
Setting: 60-bp whole probe
With: salmon DNA 0.4 mg/ml
Reference: random background probes
Direction: higher = stronger binding
Constant ends, left off below: GCCTAGCAC … GTCTTGATTCGCTTGACGCTGCTG
| Strand | fitted relative affinity |
| --- | --- |
| TTAGGTATCGGTCTGGGTTAGTGCTAG | 9.78 z-score |
| GACGGTCTCATTTTCCTGACGTGCTAG | 1.53 z-score |
| GACGGTCTCGGACGGGGGACGTGCTAG | 2.04 z-score |
| TCAGTCTTCCCTTTTAAACTGTGCTAG | 0.875 z-score |
| GACGGTCTCGGTCTCGGGGCGTGCTAG | 3.68 z-score |
| GGATTTCAGTTTCTCTTTCCGTGCTAG | 5.92 z-score |
| TTAGGTTTACTTTCCCTTTAGTGCTAG | 0.728 z-score |
| GACGATTTCGGGTATCGACACGTGCTA | 1.64 z-score |
| ATAGGACTGGACACTGGGTTAGTGCTA | -0.0684 z-score |
| TTAGTTATCGGTCTCGGTTAGTGCTAG | 3.37 z-score |
| AGATTTATCAAATGTGGGATTGTGCTA | -0.735 z-score |
| TTAGGGATCGGTCTCGGTTAGTGCTAG | 2.34 z-score |
| TTAGATTCTAGTTTCGATTAGTGCTAG | 9.25 z-score |
| ATGAGTCTCAATATTAGAGTGTGCTAG | 2.02 z-score |
| TTAGATTCCAGTTTCGATTAGTGCTAG | 8.85 z-score |
| TTAGGAATCGGTCTCGGTTAGTGCTAG | 3.08 z-score |
| GACGGTCTCCGTATCCTGACGTGCTAG | -0.0165 z-score |
| TTTGATATCGGGTTTCGATTAGTGCTA | 5.42 z-score |
| TTAGGACAGGACTTTCGGTTAGTGCTA | 2.71 z-score |
| TCAGTTTCTCCTTTCCAACTGTGCTAG | 5.42 z-score |
| TCAATTTTGGTTTTCTCACTGTGCTAG | 1.5 z-score |
| TTAGAAGTGAGTATCGATTAGTGCTAG | 4.31 z-score |
| GACGGTATCCTACTGCTGCCGTGCTAG | -0.358 z-score |
| GACGATACCGGGTTTCGAGACGTGCTA | 2.51 z-score |
| TTAGATTTCGGTATCGATTAGTGCTAG | 7.02 z-score |

Study 4
Target: RNA binding protein fox-1 homolog 2, RRM domain, GST-SBP tag (RBFOX2, Homo sapiens, UniProt O43251-10, residues 100-194)
Technique: RNA Bind-n-Seq
Molecule type: RNA
Sample: in vitro
Concentration: 365 nM
Setting: natural RNA segment, single round, ends assumed
Reference: no-protein control
Direction: higher = stronger binding
Residues (chain): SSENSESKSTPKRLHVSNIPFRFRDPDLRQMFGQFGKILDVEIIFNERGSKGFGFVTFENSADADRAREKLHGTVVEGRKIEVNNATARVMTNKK
| Strand | RBNS enrichment (R) |
| --- | --- |
| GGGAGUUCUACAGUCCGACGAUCGAGCGCAUGUCCCAGCCCCUGGUGGCCAGGCUCCCCUUGCUGAGCCGCUGCCACUUCACCCUGUGGGAAGUGGCCCCAGCCAUCUCCUCUAGACCAAGGCAGGCAGCCCCUGGAAUUCUCGGGUGCCAA | 5.95 |
| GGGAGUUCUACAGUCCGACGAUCUGUGCUCUCCUGUCACAAAUGCUGCACUGUUGAUUCUUUCAAAACAAAACGAAACAAACCUCUCCAGUCUCUAAUUUAUGCCUAUGCAAAAAAUAAAGGAUGCCCAGGAUUGGAAUUCUCGGGUGCCAA | 0.64 |
| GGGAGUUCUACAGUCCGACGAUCAACAGCAAGCAGAACACCGUGCAUGCUGGCCACAGCAGUGGAGCCAAGUCUCUGCUGGUUACGGAGCUAUACGGUACUGCAGGAGUUCUACAUACCUGCUGCGCAGAGACUGGAAUUCUCGGGUGCCAA | 1.85 |
| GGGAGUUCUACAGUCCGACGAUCCCCACGGAGAUCCUAAGCUGGCUGUCUUGUGUGCAGCCUGAGUGGGGUGGUGCAGGCCGGUAGUCUGCCCGUCACUUUGGAUCAUAGCCCUGGGCCUGGCGGCACAGCAGUGGAAUUCUCGGGUGCCAA | 0.401 |
| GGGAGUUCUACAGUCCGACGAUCAUAAUGUUGGCAUUAUUUUUUAAUUUUUUAAAAAAUAAAUGGUAUCUUAUUUAAUUGUCCUGUUCCUUCCCACUCCCCGCCUCCUAGGAUGUUAGCCCAAGCUCAGGGUAUGGAAUUCUCGGGUGCCAA | 0.311 |
| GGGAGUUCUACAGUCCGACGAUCUCCCUUUUUCUACAUAUGUGUAGAUUCAUUCUAUAAGGUCUGUUCUCUAAAGAACCUUAACUAAUGCAUCAUAAGAAUUCUCCUUUCUUUGUCUUAUGGUAUUUUUUAGGUGGAAUUCUCGGGUGCCAA | 0.573 |
| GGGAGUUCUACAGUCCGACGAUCUCCCCGCCCCUGACUGAUGGCAGGAAUCCAAGUGCAUUUCUUAAAUAAGUUACUAUUUAUUCCGCUCCGCCCCCUCCCUCUCCCUUGAGAAGCUGAGUCUUCUGCAUCAGUGGAAUUCUCGGGUGCCAA | 0.637 |
| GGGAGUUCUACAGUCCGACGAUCGUUACUAUCUUAGGAAUAGCAAAUUAUGUCCAGUCAUAGAGAAGAAAGCUUCAUAAUAAUACAUUCUUACCUAAAGCUCACUGUCAUGAUGUUAGGUAUUUAAAUUCUUAUGGAAUUCUCGGGUGCCAA | 0.481 |
| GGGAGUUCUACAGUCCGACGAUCGCAGCCUCCUACGCAGGGUCCACGCCACGUGGCCUGGGCUGCCAUCCUGCCGUCCUCCCACUGGCAUCCUGGCAAGGGGGCGUUGCUUUUCCUGGGCGGCCUUUUAUGUCUGGAAUUCUCGGGUGCCAA | 0.269 |
| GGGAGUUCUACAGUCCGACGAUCUUACCAGCCUUUCUGAUUCUUUUUUAGCUCCCCGAUUGUCUACCCCGCAUCCCUGGUCACAUGCCCACUCUAUUCCCUUACCAUGGUCACGGCCUCUGCAACAGGGCCCUUGGAAUUCUCGGGUGCCAA | 0.795 |
| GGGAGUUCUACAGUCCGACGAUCUCUGGGACUCCUGUCUAGGUGCCCCUGAUGACGGGAUGCUCUUUAAAUAAUAAAGAUGGUUUUGAUUAAUGUGGCCUCCGAGCUUACAAAUGUACACAGCAAUGAGGACAUGGAAUUCUCGGGUGCCAA | 0.495 |
| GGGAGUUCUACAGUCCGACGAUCACCUGUUAGGGAAUAUCUAUUGUCUUGAAGUCAGAGUAGCUCCCCAUUGUUGAGAUCAGUGGGCAUAUACCAAGCUCCACCCCCAGUGUCAGCUUUGUGCAAUUUGCCUUUGGAAUUCUCGGGUGCCAA | 0.673 |

Study 5
Target: BATF, bZIP domain (human)
Technique: DHFR protein complementation
Sample: yeast
Setting: single substitutions, most at no-binding floor
Reference: wild-type JUN-FOS pair
Direction: higher = stronger binding
Starting sequence: JUN, bZIP domain (human); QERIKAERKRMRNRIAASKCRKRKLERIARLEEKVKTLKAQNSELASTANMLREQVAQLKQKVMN; partner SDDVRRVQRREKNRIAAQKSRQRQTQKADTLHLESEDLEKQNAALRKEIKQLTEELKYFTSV
| Change | binding fitness |
| --- | --- |
| K36F | -0.194 natural log |
| N42R | -0.0945 natural log |
| E33G | -0.184 natural log |
| V56T | -0.454 natural log |
| E54R | -0.0776 natural log |
| L59R | -0.539 natural log |
| L38P | -1.12 natural log |
| V35E | -0.642 natural log |
| A46R | 0.0493 natural log |
| S47I | -0.00398 natural log |
| L31P | -0.446 natural log |
| A46W | -0.0873 natural log |
| K36T | -0.124 natural log |
| K34P | -1 natural log |
| Q41Y | -1.46 natural log |
| A46G | -0.19 natural log |
| R30K | -0.0806 natural log |
| L59T | -0.182 natural log |
| E54Q | -0.193 natural log |
| Q58S | 0.0279 natural log |

Study 6
Target: TAR DNA-binding protein 43, full length, His tag (TARDBP, Homo sapiens, UniProt Q13148, residues 1-414)
Technique: RNA Bind-n-Seq
Molecule type: RNA
Sample: in vitro
Concentration: 20 nM
Setting: 6-mer, flanks averaged, single round
With: 150 mM LiCl
Reference: input library
Direction: higher = stronger binding
| Strand | 6-mer enrichment (R) |
| --- | --- |
| CAGCUG | 0.891 |
| AUGCUA | 0.909 |
| ACAAUG | 0.879 |
| UGCCUG | 1 |
| AACUUU | 0.948 |
| CACGUU | 0.91 |
| CGGACU | 1.07 |
| AAUAUA | 0.977 |
| CCUGUA | 0.949 |
| ACGGCA | 0.869 |
| CCUGGC | 0.935 |
| GGCGGA | 1.11 |
| AUAAGG | 0.955 |
| GCCCGG | 1.03 |
| GGAAGG | 1.18 |
| UUCUAA | 0.91 |

A few entries again (study 5):
| Change | binding fitness |
| --- | --- |
| K36F | -0.194 natural log |
| N42R | -0.0945 natural log |
| E33G | -0.184 natural log |
| V56T | -0.454 natural log |
| E54R | -0.0776 natural log |
| L59R | -0.539 natural log |
| L38P | -1.12 natural log |
| V35E | -0.642 natural log |
| A46R | 0.0493 natural log |
| S47I | -0.00398 natural log |
| L31P | -0.446 natural log |
| A46W | -0.0873 natural log |
| K36T | -0.124 natural log |
| K34P | -1 natural log |
